Experimental data of several laboratories.
± marks the error that the study gave.
UDP-3-O-acyl-N-acetylglucosamine deacetylase C40S: UDP-3-O-acyl-N-acetylglucosamine deacetylase (Pseudomonas aeruginosa, UniProt P47205, C40S)
USP3 ZnF-UBD domain: Ubiquitin carboxyl-terminal hydrolase 3, ZnF-UBD domain (USP3, Homo sapiens, UniProt Q9Y6I4)
Chrnd/Chrna1/Chrne: Chrnd/Chrna1/Chrne (Mus musculus, UniProt P02716+P04756+P20782)
SRC SH2 domain: Proto-oncogene tyrosine-protein kinase Src, SH2 domain (SRC, Homo sapiens, UniProt P12931)

N[C@@H](Cc1ccc(O)c(I)c1)C(=O)O  Kd (Iodotyrosine deiodinase (Haliscomenobacter hydrossis, UniProt F4KU78, R38K); binding): 133 ± 10 µM
CC1(CNC(=O)[C@H](CN)NC(=O)c2ccc(C#Cc3ccccc3)cc2)NC(=O)NC1=O (stereo partly drawn)  Kd (UDP-3-O-acyl-N-acetylglucosamine deacetylase C40S; binding): > 100 µM
Oc1ccc(Br)cc1OC(F)(F)F  Kd (Iodotyrosine deiodinase (Haliscomenobacter hydrossis, UniProt F4KU78, Q108C); binding): 40 ± 4 µM
Nc1ncnc2c1ncn2[C@@H]1O[C@H](COP(=O)(O)OP(=O)(O)NP(=O)(O)O)[C@@H](O)[C@H]1O  Kd (Cell cycle histidine kinase CckA, cytoplasmic region (Caulobacter vibrioides, UniProt Q9X688); isothermal titration calorimetry; Caulobacter crescentus; 12 °C, together with: c-di-GMP 100 µM): 57 µM
CC[C@H](C)[C@H](NC(=O)[C@H](CC(=O)O)NC(=O)[C@H](C)NC(=O)[C@H](Cc1ccc(O)cc1)NC(=O)[C@H](CCCCN)NC(=O)c1ccc2c(c1)C(=O)OC21c2ccc(N(C)C)cc2Oc2cc(N(C)C)ccc21)C(=O)N[C@@H](CCC(=O)O)C(=O)N[C@@H](CO)C(=O)N[C@@H](CO)C(=O)N[C@@H](CC(N)=O)C(=O)N[C@@H](Cc1ccc(OP(=O)(O)O)cc1)C(=O)N[C@@H](CCSC)C(=O)N[C@@H](C)C(=O)N1CCC[C@H]1C(=O)N[C@@H](Cc1ccc(O)cc1)C(=O)N[C@@H](CC(=O)O)C(=O)N[C@@H](CC(N)=O)C(=O)N[C@@H](Cc1ccc(O)cc1)C(=O)N[C@@H](CC(=O)O)C(=O)O  Kd (TNS2, SH2 domain (Homo sapiens, UniProt Q63HR2); binding): 0.426 µM
O=C(O)CNC(=O)c1cccnc1  Kd (USP3 ZnF-UBD domain): 63.2 µM
c1cncc([C@@H]2CCCCN2)c1  Kd (Chrnd/Chrna1/Chrne; resting state binding, single-channel kinetics; cell-attached patch; AChR wild type): 234 µM
O=C(O)CCCN1CC=C(c2ccccc2)CC1  Kd (USP3 ZnF-UBD domain): > 1000 µM
NC(=O)c1cccnc1  Kd (Nicotinamide N-methyltransferase, SAM-bound (Rattus norvegicus, UniProt A0ABK0M0V0); substrate, SPR; 37 °C, together with: SAM): 200 µM
O=[N+]([O-])c1ccc2c(N=Nc3ccc4ccccc4c3O)c(O)cc(S(=O)(=O)O)c2c1  Kd (Diphosphomevalonate decarboxylase (Staphylococcus epidermidis, UniProt Q9FD73, W19F)): 0.023 ± 0.013 µM
CC[C@H](C)[C@@H]1NC(=O)[C@H](Cc2c[nH]c3ccccc23)NC(=O)[C@H](Cc2ccc(O)cc2)NC(=O)CSC[C@@H](C(N)=O)NC(=O)[C@H]([C@@H](C)O)NC(=O)[C@H](CO)NC(=O)[C@H](C(C)C)NC(=O)[C@H](Cc2ccc(O)cc2)NC(=O)[C@H](CCCNC(=N)N)NC(=O)[C@H](Cc2ccc(O)cc2)NC(=O)[C@H]([C@@H](C)O)NC(=O)[C@H]([C@@H](C)O)NC(=O)[C@H](Cc2c[nH]c3ccccc23)NC(=O)[C@H](CO)NC(=O)[C@H](CC(N)=O)NC(=O)[C@H](CO)NC1=O  Kd (VPS26A/VPS35/VPS29 (Homo sapiens, UniProt O75436+Q96QK1+Q9UBQ0); binding): 0.273 ± 0.007 µM
CC1(CNC(=O)[C@H](CN)NC(=O)c2ccc(-c3ccc(Br)cc3)cc2)NC(=O)NC1=O (stereo partly drawn)  Kd (UDP-3-O-acyl-N-acetylglucosamine deacetylase C40S; binding): > 100 µM
C[N+](C)(C)C  Kd (Chrnd/Chrna1/Chrne; single-channel kinetics; wild-type receptor): 810 µM
CSCC[C@H](NC(=O)CNC(=O)[C@H](Cc1ccccc1)NC(=O)[C@H](CC(=O)O)NC(=O)CNC(=O)c1ccc2c(c1)C(=O)OC21c2ccc(N(C)C)cc2Oc2cc(N(C)C)ccc21)C(=O)N[C@@H](CO)C(=O)N[C@@H](CCCNC(=N)N)C(=O)N[C@@H](CC(=O)O)C(=O)N[C@H](C(=O)N[C@@H](Cc1ccc(OP(=O)(O)O)cc1)C(=O)N[C@@H](CO)C(=O)N[C@H](C(=O)N[C@@H](CC(=O)O)C(=O)N[C@@H](Cc1ccc(O)cc1)C(=O)N[C@@H](Cc1ccc(O)cc1)C(=O)N[C@@H](CCCNC(=N)N)C(=O)N[C@H](C(=O)N[C@@H](CC(=O)O)C(=O)O)C(C)C)[C@@H](C)O)C(C)C  Kd (SRC SH2 domain; binding): 0.459 µM
CC[C@H](C)[C@H](NC(=O)[C@H](CCC(N)=O)NC(=O)[C@H](CCCNC(=N)N)NC(=O)[C@H](CC(=O)O)NC(=O)[C@H](CCC(=O)O)NC(=O)[C@H](CC(=O)O)NC(=O)[C@H](CO)NC(=O)[C@H](Cc1ccc(O)cc1)NC(=O)[C@H](CCC(=O)O)NC(=O)[C@H](CCCNC(=N)N)NC(=O)[C@H](CC(=O)O)NC(=O)[C@@H]1CCCN1C(=O)[C@H](Cc1ccc(O)cc1)NC(=O)[C@H](CO)NC(=O)[C@@H]1CCCN1C(=O)[C@H](CO)NC(=O)[C@@H](N)CCC(N)=O)C(=O)N[C@@H](CCCCN)C(=O)N[C@@H](CCC(N)=O)C(=O)N[C@@H](CCSC)C(=O)N[C@@H](CC(C)C)C(=O)N[C@@H](Cc1c[nH]cn1)C(=O)N[C@@H](CCC(N)=O)C(=O)N[C@@H](CCC(=O)O)C(=O)N[C@@H](CS)C(=O)N1CCC[C@H]1C(=O)N[C@@H](CCCNC(=N)N)C(=O)N[C@@H](CC(C)C)C(N)=O  Kd (human IgE; binding, SPR imaging; PBS-T; pH 7.2): 0.0016 ± 0.0006 µM
CC(C)C[C@H](NC(=O)[C@@H](NC(=O)[C@H](CO)NC(=O)[C@H](CO)NC(=O)[C@@H](NC(=O)[C@H](CC(=O)O)NC(=O)[C@H](CC(C)C)NC(=O)[C@@H]1CCCN1C(=O)[C@H](CO)NC(=O)c1ccc2c(c1)C(=O)OC21c2ccc(N(C)C)cc2Oc2cc(N(C)C)ccc21)[C@@H](C)O)C(C)C)C(=O)N[C@@H](Cc1ccc(OP(=O)(O)O)cc1)C(=O)N[C@H](C(=O)N[C@@H](C)C(=O)N[C@H](C(=O)N[C@@H](CCC(N)=O)C(=O)N1CCC[C@H]1C(=O)N[C@@H](CC(N)=O)C(=O)N[C@@H](CCC(=O)O)C(=O)N[C@@H](CC(=O)O)C(=O)O)C(C)C)[C@@H](C)O  Kd (SRC SH2 domain; binding): 1.88 µM
C[C@@H](O)[C@H](NC(=O)c1ccc(C#CC#Cc2ccccc2)cc1)C(=O)NO  Kd (UDP-3-O-acyl-N-acetylglucosamine deacetylase C40S; binding, thermal shift): 0.00835 µM
CC[C@H](C)[C@H](NC(=O)c1ccc2c(c1)C(=O)OC21c2ccc(N(C)C)cc2Oc2cc(N(C)C)ccc21)C(=O)N[C@@H](Cc1ccccc1)C(=O)N[C@@H](CO)C(=O)N[C@H](C(=O)N[C@@H](Cc1ccccc1)C(=O)N[C@H](C(=O)NCC(=O)N[C@@H](CCC(=O)O)C(=O)N[C@@H](Cc1c[nH]cn1)C(=O)N[C@@H](Cc1ccc(OP(=O)(O)O)cc1)C(=O)N[C@H](C(=O)N[C@@H](Cc1c[nH]cn1)C(=O)N[C@H](C(=O)N[C@@H](CC(N)=O)C(=O)N[C@@H](C)C(=O)N[C@H](C(=O)N[C@@H](Cc1ccc(O)cc1)C(=O)N[C@@H](CC(=O)O)C(=O)O)[C@@H](C)O)C(C)C)C(C)C)[C@@H](C)CC)[C@@H](C)O  Kd (SRC SH2 domain; binding): 0.201 µM
Nc1ncnc2c1ncn2[C@@H]1O[C@H](COP(=O)(O)OP(=O)(O)OP(=O)(O)O)[C@@H](O)[C@H]1O  Kd (Heat shock protein 90 homolog (Candida albicans, UniProt P46598); binding, fluorescence polarization competition; 3 h, room temperature, together with: geldanamycin-FITC 5 nM): 106 µM
CSCC[C@H](NC(=O)[C@H](CC(=O)O)NC(=O)c1ccc2c(c1)C(=O)OC21c2ccc(N(C)C)cc2Oc2cc(N(C)C)ccc21)C(=O)N[C@@H](CO)C(=O)N[C@@H](CCCCN)C(=O)N[C@@H](CC(=O)O)C(=O)N[C@@H](CCC(=O)O)C(=O)N[C@@H](CO)C(=O)N[C@H](C(=O)N[C@@H](CC(=O)O)C(=O)N[C@@H](Cc1ccc(OP(=O)(O)O)cc1)C(=O)N[C@H](C(=O)N1CCC[C@H]1C(=O)N[C@@H](CCSC)C(=O)N[C@@H](CC(C)C)C(=O)N[C@@H](CC(=O)O)C(=O)N[C@@H](CCSC)C(=O)N[C@@H](CCCCN)C(=O)N[C@@H](CC(=O)O)C(=O)O)C(C)C)C(C)C  Kd (SH2 domain-containing adapter protein F, SH2 domain (SHF, Homo sapiens, UniProt Q7M4L6); binding): 0.652 µM
CCC1COC(Cn2cncn2)(c2ccc(Cl)cc2Cl)O1 (stereo not drawn)  Kd (Cytochrome P450 2A6 (CYP2A6, Homo sapiens, UniProt P11509); binding; 20 min, pH 7.4, purified protein, 2% DMSO): 19.2 µM
